# Assay results gathered from unrelated publications.
# A part holds a random share of what one study measured.
# UniProt P80192, sequence (whole entry, looked up): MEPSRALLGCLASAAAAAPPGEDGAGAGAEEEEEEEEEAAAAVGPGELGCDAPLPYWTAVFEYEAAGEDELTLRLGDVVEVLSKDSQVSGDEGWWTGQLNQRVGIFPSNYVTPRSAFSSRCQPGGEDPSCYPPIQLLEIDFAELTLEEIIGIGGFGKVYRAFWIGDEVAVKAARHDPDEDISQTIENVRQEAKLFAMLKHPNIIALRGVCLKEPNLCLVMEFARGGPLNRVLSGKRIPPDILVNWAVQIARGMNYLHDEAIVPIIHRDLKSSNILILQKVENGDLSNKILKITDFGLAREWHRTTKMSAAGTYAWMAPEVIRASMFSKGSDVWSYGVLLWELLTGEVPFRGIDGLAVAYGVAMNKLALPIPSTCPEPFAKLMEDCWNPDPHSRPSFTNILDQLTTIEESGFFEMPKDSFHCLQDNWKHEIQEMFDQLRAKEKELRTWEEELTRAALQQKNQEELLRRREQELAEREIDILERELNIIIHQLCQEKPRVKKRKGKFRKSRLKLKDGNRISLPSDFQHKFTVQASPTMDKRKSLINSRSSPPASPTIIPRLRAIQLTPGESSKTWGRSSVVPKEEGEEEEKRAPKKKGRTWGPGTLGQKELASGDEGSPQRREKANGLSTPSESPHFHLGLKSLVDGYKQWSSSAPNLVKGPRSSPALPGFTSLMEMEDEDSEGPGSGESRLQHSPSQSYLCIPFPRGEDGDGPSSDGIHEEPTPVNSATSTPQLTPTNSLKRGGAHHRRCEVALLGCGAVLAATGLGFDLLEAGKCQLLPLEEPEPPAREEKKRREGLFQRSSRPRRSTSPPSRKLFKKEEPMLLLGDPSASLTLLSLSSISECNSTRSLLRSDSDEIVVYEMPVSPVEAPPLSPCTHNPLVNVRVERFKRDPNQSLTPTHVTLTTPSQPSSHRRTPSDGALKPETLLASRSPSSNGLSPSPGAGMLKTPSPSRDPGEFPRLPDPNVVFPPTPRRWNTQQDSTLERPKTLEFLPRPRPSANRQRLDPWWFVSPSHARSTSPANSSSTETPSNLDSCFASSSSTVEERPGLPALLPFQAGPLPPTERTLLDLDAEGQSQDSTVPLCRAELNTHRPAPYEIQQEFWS
# UniProt Q9Y243, sequence (whole entry, looked up): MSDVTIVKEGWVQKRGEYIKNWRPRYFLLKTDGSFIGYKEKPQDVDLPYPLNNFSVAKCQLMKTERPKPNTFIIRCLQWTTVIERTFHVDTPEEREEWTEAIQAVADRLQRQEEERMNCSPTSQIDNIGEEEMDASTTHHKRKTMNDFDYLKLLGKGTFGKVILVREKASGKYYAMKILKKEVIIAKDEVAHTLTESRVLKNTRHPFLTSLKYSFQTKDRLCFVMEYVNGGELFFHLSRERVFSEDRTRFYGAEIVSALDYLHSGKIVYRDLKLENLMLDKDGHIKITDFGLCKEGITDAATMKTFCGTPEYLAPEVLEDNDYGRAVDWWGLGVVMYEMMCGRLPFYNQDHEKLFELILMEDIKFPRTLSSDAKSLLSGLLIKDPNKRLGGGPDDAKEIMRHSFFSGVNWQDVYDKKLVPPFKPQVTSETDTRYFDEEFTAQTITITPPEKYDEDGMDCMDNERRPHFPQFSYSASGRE
# UniProt P51812, sequence (whole entry, looked up): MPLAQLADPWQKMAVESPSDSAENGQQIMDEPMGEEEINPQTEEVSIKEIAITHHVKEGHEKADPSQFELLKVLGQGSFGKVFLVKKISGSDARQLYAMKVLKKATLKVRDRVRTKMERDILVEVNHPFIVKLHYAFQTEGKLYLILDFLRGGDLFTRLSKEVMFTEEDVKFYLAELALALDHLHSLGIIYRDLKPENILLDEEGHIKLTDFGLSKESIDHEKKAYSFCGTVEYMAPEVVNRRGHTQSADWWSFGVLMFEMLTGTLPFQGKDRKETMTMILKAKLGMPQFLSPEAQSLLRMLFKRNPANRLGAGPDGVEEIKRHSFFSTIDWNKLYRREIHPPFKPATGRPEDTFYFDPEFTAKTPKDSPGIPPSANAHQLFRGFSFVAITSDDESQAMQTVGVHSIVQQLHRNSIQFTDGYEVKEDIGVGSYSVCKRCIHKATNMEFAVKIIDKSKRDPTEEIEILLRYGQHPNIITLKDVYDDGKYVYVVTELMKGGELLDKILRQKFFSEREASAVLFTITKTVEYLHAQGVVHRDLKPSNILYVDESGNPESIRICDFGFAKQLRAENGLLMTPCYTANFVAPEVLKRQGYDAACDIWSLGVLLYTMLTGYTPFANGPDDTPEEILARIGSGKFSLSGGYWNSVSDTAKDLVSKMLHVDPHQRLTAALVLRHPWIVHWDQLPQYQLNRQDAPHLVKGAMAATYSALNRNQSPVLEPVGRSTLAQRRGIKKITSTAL
# UniProt Q9H2K8, sequence (whole entry, looked up): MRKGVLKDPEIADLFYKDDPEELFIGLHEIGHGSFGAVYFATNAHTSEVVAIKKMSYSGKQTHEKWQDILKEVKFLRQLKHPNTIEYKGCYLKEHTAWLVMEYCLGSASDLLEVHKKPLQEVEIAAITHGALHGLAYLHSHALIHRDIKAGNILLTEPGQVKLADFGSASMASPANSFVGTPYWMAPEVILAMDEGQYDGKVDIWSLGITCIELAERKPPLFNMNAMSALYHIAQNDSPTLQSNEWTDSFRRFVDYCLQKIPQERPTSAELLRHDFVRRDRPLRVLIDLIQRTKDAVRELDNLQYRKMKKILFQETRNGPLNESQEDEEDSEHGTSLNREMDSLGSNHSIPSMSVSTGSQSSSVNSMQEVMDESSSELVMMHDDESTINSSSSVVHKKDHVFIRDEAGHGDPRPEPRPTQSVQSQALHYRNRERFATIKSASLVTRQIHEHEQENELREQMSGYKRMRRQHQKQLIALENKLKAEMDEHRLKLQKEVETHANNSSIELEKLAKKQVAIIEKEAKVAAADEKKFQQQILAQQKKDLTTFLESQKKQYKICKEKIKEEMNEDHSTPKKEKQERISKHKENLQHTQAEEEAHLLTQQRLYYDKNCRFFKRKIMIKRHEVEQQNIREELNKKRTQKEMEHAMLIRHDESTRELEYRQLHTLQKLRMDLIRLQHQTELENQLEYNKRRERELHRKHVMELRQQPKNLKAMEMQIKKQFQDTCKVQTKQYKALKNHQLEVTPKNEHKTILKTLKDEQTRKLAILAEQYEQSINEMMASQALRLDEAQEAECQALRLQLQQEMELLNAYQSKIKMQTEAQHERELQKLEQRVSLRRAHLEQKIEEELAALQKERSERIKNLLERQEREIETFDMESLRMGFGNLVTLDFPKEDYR
# UniProt P29597, sequence (whole entry, looked up): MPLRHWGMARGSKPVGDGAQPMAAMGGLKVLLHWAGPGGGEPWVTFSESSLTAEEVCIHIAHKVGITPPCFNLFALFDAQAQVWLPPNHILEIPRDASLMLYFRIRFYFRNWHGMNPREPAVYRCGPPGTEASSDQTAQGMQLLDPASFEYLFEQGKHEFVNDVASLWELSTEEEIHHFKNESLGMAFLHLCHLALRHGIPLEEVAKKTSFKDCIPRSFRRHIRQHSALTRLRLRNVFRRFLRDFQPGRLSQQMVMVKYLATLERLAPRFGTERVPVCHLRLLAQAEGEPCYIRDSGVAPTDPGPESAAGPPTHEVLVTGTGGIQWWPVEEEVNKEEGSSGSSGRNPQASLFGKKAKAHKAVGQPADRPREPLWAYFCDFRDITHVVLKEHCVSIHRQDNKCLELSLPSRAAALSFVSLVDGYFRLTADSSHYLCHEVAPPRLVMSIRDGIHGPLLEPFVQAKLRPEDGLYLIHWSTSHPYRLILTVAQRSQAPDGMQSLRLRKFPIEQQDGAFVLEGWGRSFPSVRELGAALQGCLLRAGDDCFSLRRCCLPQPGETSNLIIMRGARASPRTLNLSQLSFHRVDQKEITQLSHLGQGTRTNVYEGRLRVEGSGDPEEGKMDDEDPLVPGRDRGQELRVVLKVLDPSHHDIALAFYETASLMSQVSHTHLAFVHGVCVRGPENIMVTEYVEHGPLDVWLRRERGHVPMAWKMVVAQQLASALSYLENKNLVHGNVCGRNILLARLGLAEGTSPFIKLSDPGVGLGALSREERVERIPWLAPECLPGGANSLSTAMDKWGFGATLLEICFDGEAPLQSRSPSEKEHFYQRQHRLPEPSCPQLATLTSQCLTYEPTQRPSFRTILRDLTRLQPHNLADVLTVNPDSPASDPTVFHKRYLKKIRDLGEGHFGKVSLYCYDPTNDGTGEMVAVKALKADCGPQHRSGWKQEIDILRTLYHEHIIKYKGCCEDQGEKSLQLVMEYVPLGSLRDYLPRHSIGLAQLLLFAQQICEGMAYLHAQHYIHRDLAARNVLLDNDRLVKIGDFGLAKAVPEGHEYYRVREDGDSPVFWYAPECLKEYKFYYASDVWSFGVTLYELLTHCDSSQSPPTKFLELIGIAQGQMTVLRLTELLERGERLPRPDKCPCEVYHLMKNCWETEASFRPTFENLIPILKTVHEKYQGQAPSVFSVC

# Set 1
# Target: Calcium/calmodulin-dependent protein kinase type II subunit alpha (CAMK2A, Homo sapiens, UniProt Q9UQM7)
# UniProt Q9UQM7, sequence (whole entry, looked up): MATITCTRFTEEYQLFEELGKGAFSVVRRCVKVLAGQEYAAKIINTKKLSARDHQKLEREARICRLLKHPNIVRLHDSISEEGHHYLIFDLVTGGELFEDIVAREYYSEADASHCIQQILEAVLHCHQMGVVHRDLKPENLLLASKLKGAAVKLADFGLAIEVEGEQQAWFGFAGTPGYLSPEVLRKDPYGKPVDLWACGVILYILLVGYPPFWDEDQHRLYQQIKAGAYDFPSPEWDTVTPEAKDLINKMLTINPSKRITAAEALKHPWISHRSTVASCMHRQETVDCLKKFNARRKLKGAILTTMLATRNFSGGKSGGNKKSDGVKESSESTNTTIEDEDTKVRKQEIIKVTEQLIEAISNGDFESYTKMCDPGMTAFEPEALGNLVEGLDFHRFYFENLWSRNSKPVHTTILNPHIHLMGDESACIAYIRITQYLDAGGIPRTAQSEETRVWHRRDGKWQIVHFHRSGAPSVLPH
# Effect on: enzyme activity
# Mode: inhibitor
# Tested at: 10 µM
Compound,inhibition
C=C[C@](C)(O)CC[C@@H]1[C@@]2(C)CCCC(C)(C)[C@@H]2CC[C@@]1(C)O,-3%
CCc1ccc(Cc2ccc3c(c2)[C@]2(OC3)O[C@H](CO)[C@@H](O)[C@H](O)[C@H]2O)cc1,-8%
CC/C(=C(/CC)c1ccc(O)cc1)c1ccc(O)cc1,0%
CCCCCCCC/C=C/CCCCCCCC(=O)O,19%
CC(=O)OC/C=C/c1ccccc1,-19%
Cc1ncc([N+](=O)[O-])n1C[C@H](O)CCl,-4%
C=C1C(=O)O[C@H]2[C@H]1CC/C(C)=C/CC[C@@]1(C)O[C@@H]21,-1%

# Set 2
# Organism: Sarcocystis neurona
# Effect on: parasite growth
# Tested at: 10 µM
# Time: 96 h
# Setting: first screen
Structure (SMILES),inhibition [%]
CC1(C)S[C@@H]2[C@H](NC(=O)COc3ccccc3)C(=O)N2[C@H]1C(=O)O,10
CC(C)[C@H](N)C(=O)OCCOCn1cnc2c(=O)[nH]c(N)nc21,7.7
Cc1cc(NS(=O)(=O)c2ccc(N)cc2)no1,-12.5
O=C1c2c(O)cc(O)cc2OC(c2ccc(O)c(O)c2)C1O (centres unmarked),-6.6
CN1CCN(CCCN2c3ccccc3Sc3ccc(C(F)(F)F)cc32)CC1,13.6
CCc1ccc(CCOc2ccc(CC3SC(=O)NC3=O)cc2)nc1 (centres unmarked),-30.9

# Set 3
# SMILES: O=C1CCC(N2Cc3cc(C4CCN(Cc5ccccc5)CC4)ccc3C2=O)C(=O)N1 (centres unmarked)
# Medium: plasma
system,setting,concentration
male Sprague-Dawley rat,"oral, 3 mg/kg, 2 h",72.7 ng/mL
male Sprague-Dawley rat,"intravenous, 1 mg/kg, 6 h",14.1 ng/mL
male Sprague-Dawley rat,"oral, 3 mg/kg, 30 min",48.9 ng/mL
male CD-1 mouse,"intravenous, 1 mg/kg, 2 h",41.6 ng/mL
male Sprague-Dawley rat,"intravenous, 1 mg/kg, 30 min",87.9 ng/mL

# Set 4
# SMILES: CCC(=O)N[C@@H]1CC[C@H](C(=O)N(C)c2ccc(-c3nc4ccccc4o3)cc2)C1
# Effect on: cell-free assay
# Technique: competition with immobilised ligand
# Tested at: 1 µM
target,remaining binding
"SNF-related serine/threonine-protein kinase (SNRK, Homo sapiens, UniProt Q9NRH2)",100%
"Receptor-type tyrosine-protein kinase FLT3 (FLT3, Homo sapiens, UniProt P36888, D835V)",92%
"RAC-gamma serine/threonine-protein kinase (AKT3, Homo sapiens, UniProt Q9Y243)",100%
"Mitogen-activated protein kinase kinase kinase 9 (MAP3K9, Homo sapiens, UniProt P80192)",100%
"Serine/threonine-protein kinase N2 (PKN2, Homo sapiens, UniProt Q16513)",100%
"Phosphatidylinositol 4,5-bisphosphate 3-kinase catalytic subunit alpha isoform (PIK3CA, Homo sapiens, UniProt P42336, Q546K)",100%
"Epidermal growth factor receptor (EGFR, Homo sapiens, UniProt P00533, A750P/del747-749)",100%
"Serine/threonine-protein kinase TAO3 (TAOK3, Homo sapiens, UniProt Q9H2K8)",87%
"Non-receptor tyrosine-protein kinase TYK2, JH1 (TYK2, Homo sapiens, UniProt P29597)",100%
"Serine/threonine-protein kinase ULK3 (ULK3, Homo sapiens, UniProt Q6PHR2)",66%
"Tyrosine-protein kinase ABL1, non-phosphorylated (ABL1, Homo sapiens, UniProt P00519, T315I)",79%
"Ribosomal protein S6 kinase alpha-3, N-terminal kinase domain (RPS6KA3, Homo sapiens, UniProt P51812)",91%
"Epidermal growth factor receptor (EGFR, Homo sapiens, UniProt P00533, del746-750)",62%
"Myosin light chain kinase (MYLK3, Homo sapiens, UniProt Q32MK0)",100%

# A few entries again (set 4):
target,remaining binding
"Mitogen-activated protein kinase kinase kinase 9 (MAP3K9, Homo sapiens, UniProt P80192)",100%
"Serine/threonine-protein kinase N2 (PKN2, Homo sapiens, UniProt Q16513)",100%
